# Experimental data from different studies.
# Compare with care: the assays were run in different laboratories. Numbers after ± are the reported error.
# AHR: Aryl hydrocarbon receptor (AHR, Homo sapiens, UniProt P35869)
# UniProt P35869, sequence (whole entry, looked up): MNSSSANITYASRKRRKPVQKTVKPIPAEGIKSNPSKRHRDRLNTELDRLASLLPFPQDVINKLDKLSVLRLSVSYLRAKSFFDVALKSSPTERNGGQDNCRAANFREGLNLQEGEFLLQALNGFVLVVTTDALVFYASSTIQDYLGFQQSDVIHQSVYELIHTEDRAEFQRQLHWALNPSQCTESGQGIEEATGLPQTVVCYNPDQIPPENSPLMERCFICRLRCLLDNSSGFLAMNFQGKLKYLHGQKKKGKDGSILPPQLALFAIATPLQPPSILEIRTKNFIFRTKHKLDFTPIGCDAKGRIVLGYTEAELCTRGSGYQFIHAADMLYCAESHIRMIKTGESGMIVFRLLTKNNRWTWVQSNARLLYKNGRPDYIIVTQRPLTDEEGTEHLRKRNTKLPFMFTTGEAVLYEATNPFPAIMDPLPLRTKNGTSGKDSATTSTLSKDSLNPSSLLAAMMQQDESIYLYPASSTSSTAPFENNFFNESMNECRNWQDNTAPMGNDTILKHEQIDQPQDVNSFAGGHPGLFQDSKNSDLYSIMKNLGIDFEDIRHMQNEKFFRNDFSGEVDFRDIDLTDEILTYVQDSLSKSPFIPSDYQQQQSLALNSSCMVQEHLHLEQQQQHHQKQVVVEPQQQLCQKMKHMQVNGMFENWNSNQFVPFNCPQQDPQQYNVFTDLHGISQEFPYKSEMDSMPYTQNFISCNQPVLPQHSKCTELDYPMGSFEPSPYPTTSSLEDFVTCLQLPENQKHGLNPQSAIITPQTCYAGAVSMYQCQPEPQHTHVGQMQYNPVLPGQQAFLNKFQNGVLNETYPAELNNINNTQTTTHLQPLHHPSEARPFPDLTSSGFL
# CYP3A4: Cytochrome P450 3A4 (CYP3A4, Homo sapiens, UniProt P08684)
# UniProt P08684, sequence (whole entry, looked up): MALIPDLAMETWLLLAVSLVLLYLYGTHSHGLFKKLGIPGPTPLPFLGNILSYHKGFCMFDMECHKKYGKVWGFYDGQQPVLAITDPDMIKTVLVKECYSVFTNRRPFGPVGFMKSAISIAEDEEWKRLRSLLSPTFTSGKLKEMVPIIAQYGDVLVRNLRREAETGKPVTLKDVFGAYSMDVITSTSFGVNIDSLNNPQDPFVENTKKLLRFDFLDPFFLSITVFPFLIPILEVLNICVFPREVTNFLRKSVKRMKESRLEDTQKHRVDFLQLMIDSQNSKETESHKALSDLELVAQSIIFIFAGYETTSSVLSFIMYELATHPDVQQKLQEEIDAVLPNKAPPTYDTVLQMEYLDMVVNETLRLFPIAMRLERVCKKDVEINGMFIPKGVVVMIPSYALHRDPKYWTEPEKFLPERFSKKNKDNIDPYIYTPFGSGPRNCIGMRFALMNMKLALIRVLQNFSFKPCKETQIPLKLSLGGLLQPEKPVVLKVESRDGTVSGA
# CYP2B6: Cytochrome P450 2B6 (CYP2B6, Homo sapiens, UniProt P20813)
# UniProt P20813, sequence (whole entry, looked up): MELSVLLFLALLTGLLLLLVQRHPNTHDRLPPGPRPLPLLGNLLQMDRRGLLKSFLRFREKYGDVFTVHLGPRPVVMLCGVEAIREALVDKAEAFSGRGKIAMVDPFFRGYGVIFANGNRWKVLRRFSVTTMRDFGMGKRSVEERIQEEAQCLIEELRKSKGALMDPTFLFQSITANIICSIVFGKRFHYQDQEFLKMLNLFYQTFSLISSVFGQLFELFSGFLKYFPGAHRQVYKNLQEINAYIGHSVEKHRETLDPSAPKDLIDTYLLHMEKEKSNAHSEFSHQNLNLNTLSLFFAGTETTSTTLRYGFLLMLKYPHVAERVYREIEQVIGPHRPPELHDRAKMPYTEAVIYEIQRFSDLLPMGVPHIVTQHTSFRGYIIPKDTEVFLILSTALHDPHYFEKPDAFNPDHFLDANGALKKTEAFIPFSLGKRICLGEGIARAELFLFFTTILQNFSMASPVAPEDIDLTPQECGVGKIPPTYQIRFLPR
# UniProt O70423, sequence (whole entry, looked up): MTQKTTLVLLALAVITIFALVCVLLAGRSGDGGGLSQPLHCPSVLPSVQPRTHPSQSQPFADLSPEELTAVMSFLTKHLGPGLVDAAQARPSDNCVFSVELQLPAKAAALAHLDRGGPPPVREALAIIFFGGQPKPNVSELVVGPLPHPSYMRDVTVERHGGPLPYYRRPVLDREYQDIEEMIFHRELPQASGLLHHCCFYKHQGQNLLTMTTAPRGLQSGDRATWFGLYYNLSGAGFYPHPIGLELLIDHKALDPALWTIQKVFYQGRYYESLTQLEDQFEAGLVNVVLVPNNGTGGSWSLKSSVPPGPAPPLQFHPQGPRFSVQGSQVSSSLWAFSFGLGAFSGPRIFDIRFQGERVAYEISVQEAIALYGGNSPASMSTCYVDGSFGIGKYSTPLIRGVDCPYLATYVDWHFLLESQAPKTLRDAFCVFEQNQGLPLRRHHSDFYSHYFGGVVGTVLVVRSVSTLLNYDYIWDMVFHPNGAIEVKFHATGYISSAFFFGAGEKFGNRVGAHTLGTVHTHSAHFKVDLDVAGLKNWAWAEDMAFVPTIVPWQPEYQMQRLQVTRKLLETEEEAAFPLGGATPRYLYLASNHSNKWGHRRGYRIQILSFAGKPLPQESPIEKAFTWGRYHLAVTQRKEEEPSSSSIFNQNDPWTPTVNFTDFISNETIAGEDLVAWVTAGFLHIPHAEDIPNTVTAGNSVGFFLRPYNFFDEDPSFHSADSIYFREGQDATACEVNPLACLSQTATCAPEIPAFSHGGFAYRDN
# UniProt Q4U2R8, sequence (whole entry, looked up): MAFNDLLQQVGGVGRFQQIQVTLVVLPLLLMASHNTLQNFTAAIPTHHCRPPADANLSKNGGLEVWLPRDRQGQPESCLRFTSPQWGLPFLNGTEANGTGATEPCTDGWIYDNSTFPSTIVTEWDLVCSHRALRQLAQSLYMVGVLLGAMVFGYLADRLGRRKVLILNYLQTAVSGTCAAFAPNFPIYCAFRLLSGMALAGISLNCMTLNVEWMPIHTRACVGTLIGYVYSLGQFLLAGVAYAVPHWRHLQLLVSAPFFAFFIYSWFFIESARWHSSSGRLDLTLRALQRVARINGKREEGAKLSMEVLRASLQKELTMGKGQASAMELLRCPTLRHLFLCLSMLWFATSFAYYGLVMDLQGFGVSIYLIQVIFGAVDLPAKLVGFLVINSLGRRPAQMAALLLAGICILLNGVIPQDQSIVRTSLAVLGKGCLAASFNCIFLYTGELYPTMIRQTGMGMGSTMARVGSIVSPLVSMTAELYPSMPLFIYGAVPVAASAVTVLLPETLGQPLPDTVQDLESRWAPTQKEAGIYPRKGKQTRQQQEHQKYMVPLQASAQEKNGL
# UniProt Q9Y694, sequence (whole entry, looked up): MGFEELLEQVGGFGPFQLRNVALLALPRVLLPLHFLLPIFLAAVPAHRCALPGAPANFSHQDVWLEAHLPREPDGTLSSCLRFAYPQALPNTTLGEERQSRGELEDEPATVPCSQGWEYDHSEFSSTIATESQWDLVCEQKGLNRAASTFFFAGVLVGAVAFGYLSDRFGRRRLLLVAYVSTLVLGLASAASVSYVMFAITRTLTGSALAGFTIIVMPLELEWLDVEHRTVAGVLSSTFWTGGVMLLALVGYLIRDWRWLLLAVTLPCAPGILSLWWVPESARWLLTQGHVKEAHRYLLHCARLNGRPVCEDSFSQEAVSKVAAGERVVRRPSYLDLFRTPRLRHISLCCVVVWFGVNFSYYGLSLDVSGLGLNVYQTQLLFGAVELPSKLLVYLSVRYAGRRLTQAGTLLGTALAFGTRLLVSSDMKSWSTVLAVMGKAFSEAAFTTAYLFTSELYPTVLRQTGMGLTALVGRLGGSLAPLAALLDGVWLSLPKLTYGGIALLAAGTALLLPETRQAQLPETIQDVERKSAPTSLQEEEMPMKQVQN
# UniProt Q12809, sequence (whole entry, looked up): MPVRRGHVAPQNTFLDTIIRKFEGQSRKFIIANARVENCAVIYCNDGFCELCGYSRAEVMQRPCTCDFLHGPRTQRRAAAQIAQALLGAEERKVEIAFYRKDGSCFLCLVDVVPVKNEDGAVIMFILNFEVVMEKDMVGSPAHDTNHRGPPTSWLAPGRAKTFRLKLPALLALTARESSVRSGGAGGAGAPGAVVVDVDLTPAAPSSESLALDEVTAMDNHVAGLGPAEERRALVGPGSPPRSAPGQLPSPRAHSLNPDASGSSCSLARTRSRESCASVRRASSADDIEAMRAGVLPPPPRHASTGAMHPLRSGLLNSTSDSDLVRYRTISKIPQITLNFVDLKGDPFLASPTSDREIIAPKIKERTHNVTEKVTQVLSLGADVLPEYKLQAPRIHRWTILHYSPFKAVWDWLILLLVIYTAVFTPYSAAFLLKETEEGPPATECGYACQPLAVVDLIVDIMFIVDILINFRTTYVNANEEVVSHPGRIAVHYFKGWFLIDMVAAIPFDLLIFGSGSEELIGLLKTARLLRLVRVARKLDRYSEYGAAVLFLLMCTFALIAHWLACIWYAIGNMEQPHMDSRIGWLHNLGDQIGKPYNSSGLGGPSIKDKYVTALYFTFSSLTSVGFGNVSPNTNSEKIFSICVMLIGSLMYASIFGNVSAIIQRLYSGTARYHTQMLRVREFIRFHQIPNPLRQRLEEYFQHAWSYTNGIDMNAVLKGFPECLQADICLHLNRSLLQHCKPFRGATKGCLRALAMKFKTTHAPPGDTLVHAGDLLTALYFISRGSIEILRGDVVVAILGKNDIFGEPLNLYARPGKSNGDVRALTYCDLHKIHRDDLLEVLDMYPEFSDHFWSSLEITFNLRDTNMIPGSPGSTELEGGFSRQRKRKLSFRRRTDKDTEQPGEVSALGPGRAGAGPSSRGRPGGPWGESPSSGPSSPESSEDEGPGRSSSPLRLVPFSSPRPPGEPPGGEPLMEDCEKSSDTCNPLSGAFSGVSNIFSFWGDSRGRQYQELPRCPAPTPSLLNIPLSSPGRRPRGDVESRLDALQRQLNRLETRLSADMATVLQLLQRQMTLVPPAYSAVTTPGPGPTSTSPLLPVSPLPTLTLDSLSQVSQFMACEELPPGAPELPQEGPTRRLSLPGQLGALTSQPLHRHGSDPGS
SMILES,target,test,system,setting,how to read,endpoint,result
Cn1c(=O)c2c(ncn2C)n(C)c1=O,"Cytochrome P450 1A2 (CYP1A2, Homo sapiens, UniProt P05177)",,"human, plasma","oral, 200 mg, day 1, alone, arithmetic mean",,half-life,5.04 h
CCOc1ccccc1OCCN[C@H](C)Cc1ccc(OC)c(S(N)(=O)=O)c1,H+/organic cation antiporter,cell uptake,hCMEC/D3,,,intrinsic clearance,10.1 µL/min/mg protein
COC(=O)c1ccccc1C(=O)c1c[nH]c2ccccc12,AHR,"reporter gene, agonist, XRE luciferase",HepG2,10 µM,reference: ITE,activity at 10 µM,30%
C=CCN1C[C@H](C(=O)N(CCCN(C)C)C(=O)NCC)C[C@@H]2c3cccc4[nH]cc(c34)C[C@H]21,H+/organic cation antiporter,cell uptake,hCMEC/D3,,,intrinsic clearance,81.4 µL/min/mg protein
Cc1cc(Nc2ncnc3ccc(NC4=NC(C)(CO)CO4)cc23)ccc1Oc1ccn2ncnc2c1 (stereo not drawn),CYP3A4,,"human, plasma","oral, 300 mg tucatinib single dose, day 1, tucatinib alone",,half-life (arithmetic mean),11.7 h
COc1ccccc1C(=O)c1c[nH]c2ccccc12,AHR,"reporter gene, agonist",HepG2,XRE-driven luciferase,reference: ITE 10 µM,Emax,12%
C=CC(=O)N(C)CCOc1c(N)ncnc1-c1cc(F)cc(NC(=O)c2ccc(C3CC3)cc2F)c1C,CYP2B6,recombinant enzyme,potassium phosphate buffer,pH 7.4,,Vmax,0.11 min⁻¹
Cc1ncc(CO)c(C(=O)O)c1O,"Solute carrier family 22 member 7 (SLC22A7, Homo sapiens, UniProt Q9Y694)",substrate,HEK293 control cells,,,uptake rate,2.8 ± 0.3 pmol/min/mg protein
N#C[C@H](C[C@@H]1CCCNC1=O)NC(=O)[C@H](CC1CC1)NC(=O)c1cc2cccc(Cl)c2[nH]1,CYP2B6,NADPH metabolic stability,,"2 µM, pH 7.4, 37 °C, 100 pmol/mL enzyme",,half-life,> 2.13 h
C[C@H]1CN(C2COC2)CCN1c1ccc(Nc2cc(-c3ccnc(N4CCn5c(cc6c5CC(C)(C)C6)C4=O)c3CO)cn(C)c2=O)nc1,human CYP2D6,,human liver microsomes,"1 µM, 60 min, pH 7.4, added: quinidine 1 µM, NADPH",reference: 0 min,remaining compound,56.9 ± 4.1%
NCc1cc2c(cc1F)C(=O)N(C1CCC(=O)NC1=O)C2 (stereo not drawn),"Amine oxidase [copper-containing] 3 (Mus musculus, UniProt O70423)","substrate, LC-MS/MS",recombinant mouse enzyme,"10 µM, 4 h, pH 7.4",,concentration,2400 nM
C=C(F)C(=O)N1CCN(c2nc(OC[C@@H]3CCCN3C)nc3c2CCN(c2cccc4cccc(Cl)c24)C3)C[C@@H]1CC#N,CYP3A4,,"healthy volunteers, plasma","200 mg, geometric mean, added: itraconazole once daily",,AUC(0-t),7400 ng·h/mL
CCCCN1CCCC[C@H]1C(=O)Nc1c(C)cccc1C,H+/organic cation antiporter,cell uptake,hCMEC/D3,,,intrinsic clearance,6.6 µL/min/mg protein
CC[C@H]1[C@@H](O)[C@@H]2[C@H](CC[C@]3(C)[C@@H]([C@H](C)CCNC(=O)NS(=O)(=O)c4ccc(C(C)(C)C)cc4)CC[C@@H]23)[C@@]2(C)CC[C@@H](O)C[C@@H]12,CYP3A4,,"human, plasma","arithmetic mean, added: fluconazole",,Tlast,120 h
CN1C2CCCC1CC(NC(=O)c1nn(C)c3ccccc13)C2 (stereo not drawn),H+/organic cation antiporter,cell uptake,hCMEC/D3,,,intrinsic clearance,25.7 µL/min/mg protein
C=CC(=O)N1C[C@H](Nc2ncnc3[nH]ccc23)CC[C@@H]1C,CYP3A,substrate,"human, plasma","oral, single dose, added: itraconazole multiple doses",,AUC(0-t),304 ng·h/mL
O=C1c2cccc3c2[C@H](CCC3)CN1[C@@H]1CN2CCC1CC2,H+/organic cation antiporter,cell uptake,hCMEC/D3,,,intrinsic clearance,46.1 µL/min/mg protein
CC(C)=CCc1c(O)cc(O)c2c1O[C@H](c1ccc(O)cc1)CC2=O,human CYP2D6,,,"1 µM, pH 7.4",,inhibition,< 10%
Cc1oc2ccccc2c1Cc1cc(I)c(OCC(=O)O)c(I)c1,"Voltage-gated inwardly rectifying potassium channel KCNH2 (KCNH2, Homo sapiens, UniProt Q12809)","potassium current, whole-cell patch clamp",HEK293 expressing hERG1,"10 µM, 10 mM K+",,activation V1/2,-19.6 mV
CCc1cc(/C(C)=N/OCc2ccc(C3CCCCC3)c(C(F)(F)F)c2)ccc1CN1CC(C(=O)O)C1,"Solute carrier family 22 member 6 (SLC22A6, Homo sapiens, UniProt Q4U2R8)","transport, inhibitor",HEK293 transfected with SLC22A6,"up to 24.3 µM, 5 min, added: p-aminohippuric acid 1 µM",,maximal inhibition,-7.7%
COc1ccc2c(c1)N(C[C@H](C)CN(C)C)c1ccccc1S2,H+/organic cation antiporter,cell uptake,hCMEC/D3,,,intrinsic clearance,205 µL/min/mg protein
Nc1c(CC(=O)O)cccc1C(=O)c1ccc(Br)cc1,OATP,,cynomolgus monkey hepatocytes,"37 °C, 10% monkey serum, added: 200 µM rifamycin SV",,uptake clearance,7.1 µL/min/10⁶ cells
O=C(c1cccc(Cl)n1)c1c[nH]c2ccccc12,AHR,"reporter gene, agonist, XRE luciferase",HepG2,10 µM,reference: ITE,activity at 10 µM,158%
CCCCC1=NC2(CCCC2)C(=O)N1Cc1ccc(-c2ccccc2S(=O)(=O)Nc2noc(C)c2C)c(COCC)c1,CYP3A4,"mechanism-based inhibitor, unbound apparent",,,,KI,4.04 µM
CC(C)=CCc1c(O)cc2c(c1O)C(=O)C[C@@H](c1ccc(O)cc1)O2,human CYP2D6,,,"10 µM, pH 7.4",,inhibition,< 10%
Cc1cc(Nc2ncnc3ccc(NC4=NC(C)(C)CO4)cc23)ccc1Oc1ccn2ncnc2c1,CYP3A4,,"human, plasma","oral, 300 mg, day 1, single dose alone",,"AUC(0-last), mean",3470 ng·h/mL
Cc1cccc(C)c1NC(=O)C1CCCCN1C (stereo not drawn),H+/organic cation antiporter,cell uptake,hCMEC/D3,,,intrinsic clearance,10.9 µL/min/mg protein

# Repeated from above:
SMILES,target,test,system,setting,how to read,endpoint,result
CC(C)=CCc1c(O)cc(O)c2c1O[C@H](c1ccc(O)cc1)CC2=O,human CYP2D6,,,"1 µM, pH 7.4",,inhibition,< 10%
CCCCN1CCCC[C@H]1C(=O)Nc1c(C)cccc1C,H+/organic cation antiporter,cell uptake,hCMEC/D3,,,intrinsic clearance,6.6 µL/min/mg protein
